Assay results gathered from unrelated publications.
Several values in a cell are separate wells, animals, samples, runs or records. ± gives the spread as reported.

Compound | target or system | assay | test system | conditions | how to read | measurement | result
CC[C@H](C)[C@H](NC(=O)[C@H](CC(C)C)NC(=O)[C@H](CC(C)C)NC(=O)[C@H](CC(=O)O)NC(=O)[C@@H](NC(=O)[C@H](CCC(=O)O)NC(=O)[C@H](CCCCN)NC(=O)[C@H](Cc1ccc(O)cc1)NC(=O)[C@H](CCCCN)NC(=O)[C@H](Cc1c[nH]cn1)NC(=O)CNC(=O)CN)[C@@H](C)O)C(=O)N[C@@H](CC(C)C)C(=O)N[C@@H](Cc1ccccc1)C(=O)N[C@@H](CCCCN)C(=O)N[C@@H](CC(=O)O)C(=O)N[C@@H](CC(=O)O)C(=O)N[C@@H](Cc1ccc(O)cc1)C(=O)N[C@@H](Cc1ccccc1)C(=O)N[C@@H](C)C(=O)N[C@@H](CCCCN)C(=O)N[C@@H](CCCCN)C(=O)N[C@@H](CC(N)=O)C(=O)N[C@@H](CCC(=O)O)C(=O)N[C@@H](CCC(=O)O)C(=O)N[C@@H](CCCNC(=N)N)C(=O)N[C@@H](CCCCN)C(N)=O | HCV IRES RNA | MALDI-TOF mass spectrometry, item: 5'-phosphate products | hepatitis C virus | – | – | initial cleavage rate | 2.8 ± 2.5 %/min
Cc1cc(C(=O)Nc2nc3cccc(C)c3n2[C@H]2CCCCN(C(=O)/C=C/CN(C)C)C2)ccn1 | Trypanosoma brucei | propidium iodide flow cytometry | bloodstream form | concentration not given, 72 h | – | cells in S phase | 15.8%
O=C1NC2(CC2)COc2ncc(F)cc2[C@H]2COCCN2c2ccn3ncc1c3n2 | – | – | Sprague-Dawley rat, female, blood | oral, 10 mg/kg/day, 4 weeks, end of recovery, subacute toxicity | – | mean corpuscular haemoglobin concentration | 321 ± 7 g/L
Nc1ccccc1C(=O)OCC#CCOC(=O)c1ccccc1N | Aspergillus fumigatus | microbial growth, broth dilution | MF5668 | – | – | MIC | 4 µg/mL
COc1ccccc1-c1n[nH]c2nc(NC3CCN(C(=O)Cc4ccc(F)cc4F)CC3)ncc12 | – | bead binding, competition bead pull-down, item: LINJ.35.5300 | Leishmania donovani extract | 10 µM | baseline: vehicle | relative abundance | 1.15
CCc1nc2ccc(Cl)cn2c1C(=O)NCc1ccc2oc(-c3ccc(OC(F)(F)F)cc3)nc2c1 | Mycolicibacterium smegmatis | – | – | 72 h | – | MIC | > 100 µM
CSCC[C@H](NC(=O)[C@@H]1CSSC[C@H](NC(=O)[C@H](CCCCN)NC(=O)[C@H](Cc2ccc(O)cc2)NC(=O)CNC(=O)[C@@H](N)CC(C(=O)O)C(=O)O)C(=O)N[C@@H](C(C)C)C(=O)N[C@H](Cc2c[nH]c3ccccc23)C(=O)N[C@@H](CCCCN)C(=O)N[C@@H]([C@@H](C)O)C(=O)N1)C(=O)N1C[C@H](O)C[C@H]1C(=O)N[C@@H](C)C(=O)O | – | calcium imaging | zebrafish larvae CNS neurons | 5 µM | baseline: cells | responding neurons | 14.1 ± 2.64%
COc1ccccc1-c1ccncc1C(=O)Nc1nnc(OCc2ccc(Cl)cc2)s1 | DLD-1 BRCA2-/- | – | – | 2 µM, single replicate | baseline: untreated | colony survival | 35.2% and 30.3% and 28.4%
COc1ccccc1-c1n[nH]c2nc(N[C@H]3CC[C@H](NS(=O)(=O)CC(C)C)CC3)ncc12 | – | bead binding, competition bead pull-down, item: LINJ.31.2210 | Leishmania donovani extract | 10 µM | baseline: vehicle | relative abundance | 0.83
CCN(CC)C(=O)[C@@H]1C=C2c3cccc4c3c(cn4C(=O)c3cccs3)C[C@H]2N(C)C1 | – | magnetometer detection | mouse C57BL/6J male | intraperitoneal, dose not given, maximally active doses, 5 min blocks | – | time to peak head-twitch response | 5 to 10 min
CC(C)CC(C(=O)N1CC2(CC1C#N)C(=O)Nc1ccccc12)N(C)C(=O)c1cc2c(F)cc(F)c(F)c2[nH]1 (stereo not shown) | Human coronavirus 229E | cytopathic effect | MRC5 | 3.375 µM | – | inhibition | 107%
CC(C)(C)C(=O)OCOP(=O)(OCOC(=O)C(C)(C)C)C1CCCN(O)C1=O (stereo not shown) | OVCAR-4 | – | – | – | – | log TGI | -4.22 log M
Cc1cc(Oc2nc(N3CC[C@@H](c4ccncc4)C3)ncc2F)[nH]n1 | Mycobacterium tuberculosis | OD | H37Rv PurF CRISPRi knockdown | 3.1e-05 µM, with: anhydrotetracycline low | – | normalised growth | 96% and 97%
CC[C@H](C)[C@@H]1NC(=O)[C@H](Cc2c[nH]cn2)NC(=O)[C@H](CC(N)=O)NC(=O)[C@H](CO)NC(=O)[C@H](CCC(N)=O)NC(=O)[C@@H](NC(=O)CN)CSSC[C@@H]2NC(=O)CNC(=O)[C@H](C)NC(=O)[C@H](CC(C)C)NC(=O)[C@@H]3CSSC[C@@H](C(=O)NCC(=O)O)NC(=O)[C@H](C)NC(=O)CNC(=O)[C@H](CC(N)=O)NC(=O)[C@@H]4CCCN4C(=O)CNC(=O)[C@H](CSSC[C@H](NC(=O)[C@H](CCCNC(=N)N)NC(=O)[C@H](CC(N)=O)NC(=O)[C@H](Cc4c[nH]cn4)NC(=O)[C@H](CCCCN)NC(=O)[C@H](CC(C)C)NC1=O)C(=O)N[C@@H](CCCCN)C(=O)N[C@@H](CCC(N)=O)C(=O)N[C@@H](CC(=O)O)C(=O)N[C@@H](CO)C(=O)N[C@@H](CC(=O)O)C(=O)N3)NC(=O)[C@H](C(C)C)NC2=O | HEK293, Wnt1-transfected | Wnt signalling | – | – | – | IC50 | > 100 µM
Cc1nc2ccc(C(F)(F)F)cn2c1C(=O)NCc1ccc2oc(-c3ccc(OC(F)(F)F)cc3)nc2c1 | Mycolicibacterium smegmatis | – | – | – | – | MIC90 | > 100 µM
CN1C(=O)C(C2C3=C(CC(C)(C)CC3=O)Oc3ccc([N+](=O)[O-])cc32)C(=O)N(C)C1=O (stereo not shown) | 3T3-L1 pre-adipocytes | cell viability, MTT | – | 72 h | – | IC50 | > 100 µg/mL

Some of these lines once more:
Compound | target or system | assay | test system | conditions | how to read | measurement | result
CC(C)(C)C(=O)OCOP(=O)(OCOC(=O)C(C)(C)C)C1CCCN(O)C1=O (stereo not shown) | OVCAR-4 | – | – | – | – | log TGI | -4.22 log M
